Measurements from different studies.
Each line is one published result; not all experiments were run side by side. “And” joins repeats or separate records; there may be more than shown. ± marks the error that the study gave.
NNMT: Nicotinamide N-methyltransferase (NNMT, Homo sapiens, UniProt P40261)
PIK3CD: Phosphatidylinositol 4,5-bisphosphate 3-kinase catalytic subunit delta isoform (PIK3CD, Homo sapiens, UniProt O00329)
DNA dC->dU-editing enzyme APOBEC-3B C-terminal domain: DNA dC->dU-editing enzyme APOBEC-3B, C-terminal domain (Homo sapiens, UniProt Q9UH17)
ppa: Inorganic pyrophosphatase (ppa, Escherichia coli, UniProt P0A7A9)
CACNA1C: Voltage-dependent L-type calcium channel subunit alpha-1C (CACNA1C, Homo sapiens, UniProt Q13936)
NTSR1: Neurotensin receptor type 1 (NTSR1, Homo sapiens, UniProt P30989)
ADRB2: Beta-2 adrenergic receptor (ADRB2, Homo sapiens, UniProt P07550)
Uncharacterized protein: Uncharacterized protein (Trypanosoma brucei brucei, UniProt Q386Q8)
DNA dC->dU-editing enzyme APOBEC-3B: DNA dC->dU-editing enzyme APOBEC-3B (Homo sapiens, UniProt Q9UH17)
MAOB: Amine oxidase [flavin-containing] B (MAOB, Homo sapiens, UniProt P27338)
Gria1: Glutamate receptor 1 (Gria1, Rattus norvegicus, UniProt P19490)
OfChi-h: Chitinase (OfChi-h, Ostrinia furnacalis, UniProt Q4AE59)
glpG: Rhomboid protease GlpG (glpG, Escherichia coli, UniProt P09391)
SLC7A5: Large neutral amino acids transporter small subunit 1 (SLC7A5, Homo sapiens, UniProt Q01650)

O=C(CCNC(=O)CNC(=O)CC(c1ccccc1)(c1ccccc1)c1ccccc1)NC[C@@H]1CCCN(Cc2ccc(F)cc2)C1
IC50 (CHRM5 (Homo sapiens, UniProt P08912); ligand displacement, radioligand; cell membranes): 13.1 µM

Cc1cc2c(cc1N)n(C)c(=O)n2C
IC50 (Bromodomain-containing protein 1, bromodomain (BRD1, Homo sapiens, UniProt O95696); acetylated histone H4 peptide binding, inhibitor, HTRF): 5.82 µM

CNc1cc(N)c(C(N)=O)cn1
IC50 (NNMT; enzyme activity in cells, inhibitor): < 0.1 µM and 0.0631 µM

O=c1cc(-c2ccc(O)cc2)oc2c([C@@H]3OC[C@H](O)[C@H](O)[C@H]3O)c(O)c([C@@H]3O[C@H](CO)[C@@H](O)[C@H](O)[C@H]3O)c(O)c12
IC50 (CAMK2D (Homo sapiens, UniProt Q13557); binding, LanthaScreen Eu binding; initial read): 95.6 µM

CCN(CC)CC(=O)Nc1cccc(-n2cc(-c3ccc4ccc(-c5cn(-c6cccc(NC(=O)CN(CC)CC)c6)nn5)cc4c3)nn2)c1
IC50 (ZAP70 (Homo sapiens, UniProt P43403); enzyme activity, inhibitor): > 10 µM

Cc1nc(Nc2ccc3c(c2)/C(=C/c2ccccc2)C(=O)N3)c2ccccc2n1
IC50 (PIK3CD; enzyme activity, inhibitor, ADP detection): 0.593 µM

CCC1(O)CCCN(C(=O)c2ccc(-c3ccc(F)c(C(N)=O)c3)cc2)C1 (centres unmarked)
IC50 (DNA dC->dU-editing enzyme APOBEC-3B C-terminal domain; deaminase activity, inhibitor, UDG-coupled deamination): 851 ± 38 µM

COc1ccc(C(=O)CC2(O)C(=O)Nc3cc(Cl)cc(Cl)c32)c(OC)c1 (centres unmarked)
IC50 (ppa; enzyme activity, inhibitor): > 100 µM

COc1ccc2c(c1)CN(C(=O)CCN1CCC(Cc3ccccc3)CC1)CCS2
IC50 (CACNA1C; ion current, inhibitor, patch clamp): 12.9 µM

O=C(O)c1cc(-c2ccc(CN3CCCC(CO)C3)o2)ccc1Cl (centres unmarked)
IC50 (DNA dC->dU-editing enzyme APOBEC-3B C-terminal domain; deaminase activity, inhibitor, UDG-coupled deamination): 45.8 ± 3 µM

COc1ccccc1C1CCN(c2nc(C3(F)CCC3)nc3c(Cl)cc(N(C)CCO)cc23)CC1
IC50 (NTSR1; G protein activation, antagonist): 0.396 µM

Clc1ccccc1C1=Nn2c(nnc2C2CCCCC2)SC1
IC50 (ppa; enzyme activity, inhibitor): > 100 µM

CN(c1ccccc1)c1nc(NC2CCCCC2)c2ccccc2n1
IC50 (ADRB2; β-arrestin recruitment, antagonist): > 50 µM

O=C1Nc2ccccc2C12NC(c1ccc(F)cc1)C1(C(=O)Nc3ccccc31)N2Cc1ccc(F)cc1 (centres unmarked)
IC50 (PIK3CD; enzyme activity, inhibitor, ADP detection): 0.183 µM

CNc1cc(F)c(C(N)=O)cn1
IC50 (NNMT; enzyme activity, inhibitor): 5.01 µM

COc1ccc(Br)cc1C[N+](C)(C)CCCN1c2ccccc2CCc2ccc(Cl)cc21
IC50 (Uncharacterized protein; enzyme activity, inhibitor, coupled colorimetric; with: E. coli pyrophosphatase coupling): 36.6 µM

N=C(N)Nc1cccc(NC(P(=O)(O)O)P(=O)(O)O)c1
IC50 (polyphosphate kinase 2 (Cytophaga hutchinsonii, UniProt A0A6N4SMB5); enzyme activity, inhibitor, HPLC; 30 min, 37 °C, with: 0.04 mM ADP and 0.3 mM polyP): 58 ± 0.48 µM

COc1ccc(OC)c(C2=Nn3c(nnc3-c3ccco3)SC2)c1
IC50 (Uncharacterized protein; inhibitor, coupled colorimetric; Trypanosoma brucei): > 100 µM

Cc1nn(-c2cccc(N)c2)c(=O)c2cnc(Nc3ccc(N4CCNCC4)cc3)nc12
IC50 (SGK3 (Homo sapiens, UniProt Q96BR1); enzyme activity, inhibitor): 1.09 µM

CCC(NC(=O)c1cccc(-c2ccc(C)nc2N)c1)c1ccnn1C (centres unmarked)
IC50 (DNA dC->dU-editing enzyme APOBEC-3B; enzyme activity, inhibitor, HPLC): 734 µM

Cc1cc(O)c2c(c1)C(=O)c1cc(O)c(O)c(O)c1C2=O
IC50 (MAOB; enzyme activity, inhibitor): 59.1 µM

O=c1c(-c2cnn(-c3ccccc3)c2)c(C(F)(F)F)oc2c(O)c(O)ccc12
IC50 (Cullin-4A (CUL4A, Homo sapiens, UniProt Q13619); enzyme activity, inhibitor, fluorescence): 13.9 µM

Cc1ccc2c(c1Br)C(O)(CC(=O)c1ccc(C3CCCCC3)cc1)C(=O)N2 (centres unmarked)
IC50 (ppa; enzyme activity, inhibitor): > 100 µM

O=C(O)Cc1cc2c(cc1C(=O)c1ccc(Cl)cc1Cl)OCO2
IC50 (Gria1; glutamate-evoked current, inhibitor, whole-cell patch clamp; HEK293T, homomeric receptor): 4.15 µM

CN(C)c1nc(NCc2ccc3ccccc3c2)c(/N=N/c2ccc(Cl)cc2)c(N(C)C)n1
IC50 (OfChi-h; enzyme activity, inhibitor, fluorescence): 0.15 µM

Fc1ccc(Nc2nc(NC3CCCCC3)c3ccccc3n2)cc1Cl
IC50 (ADRB2; cAMP production, antagonist, GloSensor; with: isoproterenol 1 µM): 26 ± 11 µM

COc1ccc(C(=O)CC2(O)C(=O)Nc3c(Br)cc(C)cc32)cc1 (centres unmarked)
IC50 (ppa; enzyme activity, inhibitor): > 100 µM

CC1C(=O)N(C(=O)c2ccccc2)C1c1ccccc1 (racemic)
IC50 (glpG; enzyme activity, inhibitor): 5.2 µM

COc1ccccc1C1CCN(c2nc(C3(C(F)(F)F)CCCC3)nc3ccc(N(C)CCO)cc23)CC1
IC50 (NTSR1; G protein activation, antagonist, BRET): 0.882 µM

Nc1ncnc2c1ncn2C1OC(CSCCNCc2cccc(-c3ccccc3)c2)C(O)C1O (centres unmarked)
IC50 (DNA adenine methyltransferase CamA (Clostridioides difficile, UniProt Q183J3)): 4 ± 1 µM

CNc1cc(CF)c(C(N)=O)cn1
IC50 (NNMT; enzyme activity, inhibitor): 0.2 µM

COC(=O)C1=C(C)NC(C)=C(C(=O)OC)C1c1ccc(F)c(C(F)(F)F)c1
IC50 (CACNA1C; ion current, inhibitor, patch clamp; pH 7.4): 3.11 µM

Clc1cccc(CNc2nc(NC3CCCCC3)c3ccccc3n2)c1
IC50 (ADRB2; cAMP production, antagonist, GloSensor; with: isoproterenol 1 µM): 25 ± 4 µM

O=C(COC(=O)c1cc2c(s1)CCCCC2)NC1CCCCC1
IC50 (Protein tyrosine phosphatase type IVA 3, with CNNM4 CBS domain (PTP4A3, Homo sapiens, UniProt O75365); protein-protein interaction, inhibitor, HTRF): > 10 µM

c1ccc(C2=Nn3c(nnc3C3CCCCC3)SC2)cc1
IC50 (Uncharacterized protein; inhibitor, coupled colorimetric; Trypanosoma brucei): > 100 µM

Fc1cccc(Nc2nc(NC3CCCCC3)c3ccccc3n2)c1
IC50 (ADRB2; β-arrestin recruitment, antagonist): 0.4 µM

C[N+](C)(CCCN1c2ccccc2CCc2ccc(Cl)cc21)Cc1ccc2ccccc2c1
IC50 (ppa; inhibitor, counter-screen, coupling enzyme alone): 32.6 µM

COC(=O)C12CCC(C)C(C)C1C1=CCC3C4(C)CCC(O)C(C)(C)C4CCC3(C)C1(C)CC2 (centres unmarked)
IC50 (UGT1A4 (Homo sapiens, UniProt P22310); enzyme activity, inhibitor; human, liver microsomes): > 100 µM

CCC1(CO)CCCN(C(=O)c2ccc(CSC)o2)C1 (centres unmarked)
IC50 (DNA dC->dU-editing enzyme APOBEC-3B; enzyme activity, inhibitor, HPLC): 439 µM

COC(=O)Cc1cc2c(cc1C(=O)c1ccccc1I)OCO2
IC50 (Gria1; glutamate-evoked current, inhibitor, whole-cell patch clamp; HEK293T, homomeric receptor): 6.03 µM

O=C1CC(c2ccccc2)N1S(=O)(=O)c1ccccc1 (centres unmarked)
IC50 (glpG; enzyme activity, inhibitor): 3 µM

COc1ccccc1C1CCN(c2nc(C3(C)CCCC3)nc3ccc(N(C)CCO)cc23)CC1
IC50 (NTSR1; G protein activation, antagonist, BRET): 11.7 µM

O=C1/C(=N\c2ccc(Cl)cc2Br)c2ccccc2N1C(=O)c1ccccc1Br
IC50 (PIK3CD; enzyme activity, inhibitor, ADP detection): 0.00297 µM

CC(C)(C)n1ncc2c(=O)n(Cc3cccc(F)c3)c(NCc3ccc(F)cn3)nc21
IC50 (CYP2C19 (Homo sapiens, UniProt P33261); enzyme activity, inhibitor): > 25 µM

CN(C)c1nc(NCc2ccc(F)cc2)c(/N=N/c2ccc(Cl)cc2)c(N(C)C)n1
IC50 (OfChi-h; enzyme activity, inhibitor, fluorescence): 0.1 µM

O=C(O)Cc1cc2c(cc1C(=O)c1ccccc1I)OCO2
IC50 (Gria1; ion current, patch clamp): 4.81 µM

Nc1cc(COc2ccc3[nH]cc(CC(N)C(=O)O)c3c2)c2oc(-c3ccccc3)nc2c1 (centres unmarked)
IC50 (SLC7A5; transporter uptake, inhibitor, radiometric): 17.6 µM

COc1cccc(OC)c1-c1cc(C(=O)NC2(C(=O)O)C3CC4CC(C3)CC2C4)nn1-c1ccc(C(=O)NCCNC(=O)[C@H](CCCCNC(=O)[C@H](CC(C)C)NC(=O)C2OC2C(=O)O)NC(=O)CN2CCN(CC(=O)O)CCN(CC(=O)O)CCN(CC(=O)O)CC2)cc1C(C)C (mixture of isomers)
IC50 (NTSR1; ligand displacement, radioligand): 0.0097 µM

N=C(N)SCc1ccccc1CSC(=N)N
IC50 (Nos2 (Mus musculus, UniProt P29477); enzyme activity, inhibitor): > 30 µM

O=C(Nc1ccc2[nH]ncc2c1)c1c[nH]cc1-c1ccccc1
IC50 (CACNA1C; calcium influx, inhibitor, Fluo-4 fluorescence; HEK293 expressing Cav1.2; 30 min, pH 7.2): 30.7 µM

N[C@@H](Cc1c[nH]c2ccc(OCc3cccc(I)c3)cc12)C(=O)O
IC50 (SLC7A5; transporter uptake, inhibitor, radiometric): 15.8 µM

Fc1ccc2nc(Nc3ccc(F)c(F)c3)nc(NC3CCCCC3)c2c1
IC50 (ADRB2; cAMP production, antagonist, GloSensor; with: isoproterenol 1 µM): 16 ± 2 µM

CC(C)c1ccc(/C=C/C(=O)c2ccc(Br)cc2)cc1
IC50 (MAOB; enzyme activity, inhibitor): 0.114 µM

A few entries again:
O=C1CC(c2ccccc2)N1S(=O)(=O)c1ccccc1 (centres unmarked)
IC50 (glpG; enzyme activity, inhibitor): 3 µM

COc1ccccc1C1CCN(c2nc(C3(C)CCCC3)nc3ccc(N(C)CCO)cc23)CC1
IC50 (NTSR1; G protein activation, antagonist, BRET): 11.7 µM

O=C1/C(=N\c2ccc(Cl)cc2Br)c2ccccc2N1C(=O)c1ccccc1Br
IC50 (PIK3CD; enzyme activity, inhibitor, ADP detection): 0.00297 µM
